Measured values gathered from unrelated publications.
Lines come from different studies, so protocols differ. Values joined by “and” are separate records of one study, mostly repeats; a detail may differ. ± marks the error that the study gave.
Gria1: Glutamate receptor 1 (Gria1, Rattus norvegicus, UniProt P19490)
TDP1: Tyrosyl-DNA phosphodiesterase 1 (TDP1, Homo sapiens, UniProt Q9NUW8)
CASP6: Caspase-6 (CASP6, Homo sapiens, UniProt P55212)

`Cc1ccc(S(=O)(=O)N2CC(NC(=O)c3cccc(C#N)c3)C2=O)cc1` (centres unmarked): IC50 “inactive” (glpG (Escherichia coli, UniProt P09391); enzyme activity, inhibitor, gel-based chimeric protein substrate).
`COC(=O)Cc1cc2c(cc1C(=O)c1ccccc1Br)OCO2` gave a current amplitude of 409 ± 35 pA (Gria1; glutamate-evoked current, whole-cell patch clamp; HEK-293T; concentration not given, pH 7.4, holding potential -60 mV, added: 10 mM glutamate).
`O=C(CC1(O)C(=O)Nc2cc(Cl)cc(Cl)c21)c1ccc2c(c1)OCO2` (centres unmarked) gave a Hill slope of 0.91 (Uncharacterized protein (Trypanosoma brucei brucei, UniProt Q386Q8); inhibitor, coupled colorimetric; Trypanosoma brucei).
`COC(=O)[C@@]1(C)C=C(C(=O)Nc2cccc(C(=O)Nc3ccc(Nc4nccc(-c5cccnc5)n4)c(C)c3)c2)C(=O)CC1` has a remaining activity of 0.575 (MAPK8 (Homo sapiens, UniProt P45983); enzyme activity, inhibitor; 0.02032 µM, 0 h, unit not given, added: GSH 10 mM pre-incubation; relative to: vehicle).
The inhibition of `O=C(O)c1ccc(Nc2c(-c3ccc(CON=Cc4cn(-c5ccccc5)nn4)cc3)nc3cc(-c4ccccc4)ccn23)cc1` (mixture of isomers) is reported as 82.7% (TDP1; enzyme activity, inhibitor; 100 µM, unpurified compound).
Under “isoTOP-ABPP competition ratio”, `CCCCCC(O)/C=C/C=O` (centres unmarked) is recorded as 5.2 (Perilipin-3 (PLIN3, Homo sapiens, UniProt O60664); competitive isoTOP-ABPP, item: M6PRBP1 cysteine peptide; Ramos soluble proteome; 100 µM, added: iodoacetamide probe; relative to: DMSO over compound-treated, higher = stronger cysteine blockade).
`Fc1ccc(Nc2nc(NC3CCCCC3)c3cc(C(F)(F)F)ccc3n2)cc1F` has a maximal inhibition of 3.8% (ADRB2 (Homo sapiens, UniProt P07550, V152G); β-arrestin2 recruitment, antagonist, BRET; mutant V152G; relative to: isoprenaline maximal response).
For `O=C(O)Cc1cc2c(cc1C(=O)c1ccccc1)OCO2`, “deactivation time constant” read 2.6 ± 0.1 ms (Gria1; glutamate-evoked current, whole-cell patch clamp; HEK-293T; concentration not given, weighted tau, 1 ms pulse, added: glutamate).
`Fc1ccc(Nc2nc(NC3CCCCC3)c3ccccc3n2)cc1` has a bias factor of > 200 fold (ADRB2 (Homo sapiens, UniProt P07550); β-arrestin2 recruitment, PathHunter and GloSensor; relative to: GloSensor IC50 over PathHunter IC50).
For `O=C(O)c1ccc(Nc2c(-c3ccc(CON=Cc4ccc(-c5cc(C(F)(F)F)ccn5)cc4)cc3)nc3cc(-c4ccccc4)ccn23)cc1` (mixture of isomers), the inhibition was 53.1% (TDP1; enzyme activity, inhibitor; 100 µM, unpurified compound).
`CC(C)C[C@@H]1NC(=O)[C@H](Cc2ccccc2)NC(=O)CSC[C@@H](C(=O)NCC(N)=O)NC(=O)[C@H](Cc2ccc(O)cc2)NC(=O)[C@H](C(C)C)NC(=O)[C@H](Cc2ccccc2)NC(=O)[C@H](Cc2ccc(O)cc2)NC(=O)[C@H](Cc2ccccc2)NC(=O)[C@H](CC(=O)O)NC(=O)[C@H](CC(N)=O)NC(=O)[C@H](CC(N)=O)NC(=O)[C@H](Cc2ccc(O)cc2)NC(=O)[C@H](C(C)C)NC(=O)[C@H](Cc2ccccc2)NC1=O` has a ΔTm of 0.21 °C (Bromodomain-containing protein 4, BD1 (BRD4, Homo sapiens, UniProt O60885); thermal stability, DSF; 50 µM).
For `Cc1cc(C=NOCc2ccc3nc(-c4ccccc4)c(Nc4ccc(C(=O)O)cc4)n3c2)c(C)n1C1CCCC1`, the inhibition was 16.8% (TDP1; enzyme activity, inhibitor; 100 µM, unpurified compound).
The cAMP luminescence of `CC(C)Oc1cc(Cl)ccc1CNc1cc(-c2ccccc2)nc2ncnn12` is reported as 41400 a.u. and 37100 a.u. and 53200 a.u. and 39300 a.u. (GPR3 (Homo sapiens, UniProt P46089, I200W); cAMP GloSensor; human cells; 100 pM; higher is more cAMP).
With `CCN(CC)C(CO)c1cccc2c(C)c(C)oc12` (centres unmarked) the fold change was 0.891 and 0.777 and 0.804 and 0.915 and 0.946 (LPAR1 (Homo sapiens, UniProt Q92633); G-protein dissociation, agonist, NanoBiT; HEK-293T; 1 nM, wild-type receptor; relative to: baseline luminescence).
`CC(C=CC=C(C)C=CC1=C(C)CCCC1(C)C)=CC=O`: “plasma membrane localization” 0.91 (Rhodopsin (RHO, Homo sapiens, UniProt P08100, P23H); immunostaining, item: opsin; COS-7 transfected; 20.00 µM, unit not given; relative to: surface over total stained cells).
With `Cc1nn(-c2ccccc2Cl)c(Cl)c1C=NOCc1ccc2nc(-c3ccccc3)c(Nc3ccc(C(=O)O)cc3)n2c1` the inhibition was 46.4% (TDP1; enzyme activity, inhibitor; 100 µM, unpurified compound).
`CCCCCC=CC=C1C(=O)C=CC1CC=CCCCC(=O)O` (centres unmarked): “isoTOP-ABPP competition ratio” 1.4 (AH receptor-interacting protein (Homo sapiens, UniProt O00170); competitive isoTOP-ABPP; proteome, soluble, MDA-MB-231; 100 µM, added: iodoacetamide probe; relative to: DMSO over compound-treated, higher = stronger cysteine blockade).
The kinact/KI of `CC(=O)N[C@@H](Cc1c[nH]c2ccccc12)C(=O)N[C@@H](CCCNC(=N)N)C(=O)N[C@@H](CO)C(=O)N[C@@H](CC(=O)O)C(=O)COC(=O)c1c(C)cccc1C` is reported as 200 M⁻¹ s⁻¹ (CASP6; enzyme activity, inhibitor).
The current amplitude of `COC(=O)Cc1cc2c(cc1C(=O)c1cccc(I)c1)OCO2` is reported as 523 ± 47 pA (Gria1; glutamate-evoked current, whole-cell patch clamp; HEK-293T; concentration not given, pH 7.4, holding potential -60 mV, added: 10 mM glutamate).
`O=C1c2sc(-c3ccc(N4CCC(F)C4)nc3F)nc2CCN1c1cccnc1` (centres unmarked) gave an inhibition of 7% (central benzodiazepine receptor; radioligand binding; 1 µM, added: agonist radioligand).
The inhibition of `O=C(O)c1ccc(Nc2c(-c3ccccc3)nc3ccc(CON=Cc4ccc(-c5nnn[nH]5)cc4)cn23)cc1` is reported as 2.5% (TDP1; enzyme activity, inhibitor; 100 µM, unpurified compound).
`Cc1cc(NC(=O)[C@H](O)c2cc(F)cc(F)c2)ccc1-c1cnc(N)c(C(=O)NC(C)C)c1` gave a remaining binding of 40% (EIF2AK1 (Homo sapiens, UniProt Q9BQI3); binding, competition with immobilised ligand; 10 µM).
With `CC(=O)N[C@@H](CCC(N)=O)C(=O)N[C@@H](CC(C)C)C(=O)N[C@@H](CCCC(=O)O)C(=O)N1CCC[C@H]1C(=O)N[C@@H](CC(=O)O)C(=O)COC(=O)c1c(C)cccc1C` the kinact/KI was 24600 M⁻¹ s⁻¹ (CASP6; enzyme activity, inhibitor).
`COC(=O)c1ccc(C=NOCc2ccc3nc(-c4ccccc4)c(Nc4ccc(C(=O)O)cc4)n3c2)nc1` (mixture of isomers) has an inhibition of 21.8% (TDP1; enzyme activity, inhibitor; 100 µM, unpurified compound).
With `COc1cccc2c(=O)c(CO)coc12` the ΔTm was 5 °C (Nicotinamide N-methyltransferase, SAM-bound (NNMT, Homo sapiens, UniProt P40261); differential scanning fluorimetry; 1 mM, added: 100 µM SAM).
With `CCCCc1nc(C=NOCc2ccc3nc(-c4ccccc4)c(Nc4ccc(C(=O)O)cc4)n3c2)c[nH]1` (mixture of isomers) the inhibition was 14.6% (TDP1; enzyme activity, inhibitor; 100 µM, unpurified compound).
`O=C(Cc1ccc(OCc2ccccc2)cc1)NC1(C(=O)O)CCN(C(=O)c2ccc(-c3cccc(Cl)c3)cc2)CC1` — result for “activity vs control”: 115% (PIK3C2A (Homo sapiens, UniProt O00443); enzyme activity, inhibitor; 10 µM).
Under IC50, `Cc1ccc2[nH]c(-c3ccccn3)nc2c1` is recorded as “inactive” (Core-binding factor subunit beta, with RUNX1 Runt domain (Homo sapiens, UniProt Q13951); Runt domain binding, inhibitor, FRET).
`O=C(O)c1ccc(Nc2c(-c3ccc(CON=Cc4ccccc4-c4ccc(F)cc4)cc3)nc3cc(-c4ccccc4)ccn23)cc1` gave an inhibition of 26.4% (TDP1; enzyme activity, inhibitor; 100 µM, unpurified compound).

Excerpt of the above:
With `CCN(CC)C(CO)c1cccc2c(C)c(C)oc12` (centres unmarked) the fold change was 0.891 and 0.777 and 0.804 and 0.915 and 0.946 (LPAR1 (Homo sapiens, UniProt Q92633); G-protein dissociation, agonist, NanoBiT; HEK-293T; 1 nM, wild-type receptor; relative to: baseline luminescence).
`CC(C=CC=C(C)C=CC1=C(C)CCCC1(C)C)=CC=O`: “plasma membrane localization” 0.91 (Rhodopsin (RHO, Homo sapiens, UniProt P08100, P23H); immunostaining, item: opsin; COS-7 transfected; 20.00 µM, unit not given; relative to: surface over total stained cells).
